Measurements of several laboratories.
Compare with care: the assays were run in different laboratories. “And” joins repeats or separate records; there may be more than shown.
Ugcg: Ceramide glucosyltransferase (Ugcg, Mus musculus, UniProt O88693)
Chain of UniProt O88693 (whole entry, looked up): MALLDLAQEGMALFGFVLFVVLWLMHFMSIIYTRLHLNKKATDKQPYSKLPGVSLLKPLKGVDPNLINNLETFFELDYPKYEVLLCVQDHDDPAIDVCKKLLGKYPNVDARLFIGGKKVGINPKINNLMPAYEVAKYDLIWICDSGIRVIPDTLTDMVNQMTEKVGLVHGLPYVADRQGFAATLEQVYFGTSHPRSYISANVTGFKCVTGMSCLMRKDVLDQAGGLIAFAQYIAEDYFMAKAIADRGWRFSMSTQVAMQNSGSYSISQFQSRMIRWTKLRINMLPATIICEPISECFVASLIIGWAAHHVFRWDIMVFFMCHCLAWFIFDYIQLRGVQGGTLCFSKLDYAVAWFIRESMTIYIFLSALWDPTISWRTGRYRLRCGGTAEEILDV

SMILES | tested on | assay | system | conditions | how to read | quantity | value
O=C(c1ccc([C@H]2[C@@H](F)[C@@H](F)C[C@@H](F)[C@H]2F)cc1)N1CCCC1 | – | liver microsome stability | rat liver microsomes | 1 µM | – | hepatic clearance | 46 mL/min/kg
OC[C@H]1[C@@H](O)[C@H](O)[C@@H](O)CN1CCCCCOCc1ccc2ccccc2c1 | Ugcg | enzyme activity, inhibitor, fluorescence | – | – | – | IC50 | 3 nM
CCCC[C@H](NC(=O)CNC(=O)CNC(=O)[C@H](CCCCNC(=O)[C@H](CC(=O)O)NC(=O)C(C)c1ccc(CC(C)C)cc1)NC(=O)CN1CCN(CC(=O)O)CCN(CC(=O)O)CCN(CC(=O)O)CC1)C(=O)N[C@H]1CC(=O)NCCCC[C@@H](C(N)=O)NC(=O)[C@H](Cc2c[nH]c3ccccc23)NC(=O)[C@H](CCCNC(=N)N)NC(=O)[C@@H](Cc2ccccc2)NC(=O)[C@H](Cc2c[nH]cn2)NC1=O (some centres unmarked) [lutetium-177 labelled] | – | – | C57 mice, tumour | intravenous, 0.037 MBq, 24 h | reference: muscle | tumour-to-tissue ratio | 43.2
COc1cccc(OC)c1-c1cc(C(=O)NC2(C(=O)O)C3CC4CC(C3)CC2C4)nn1-c1ccc(C(=O)NCCNC(=O)[C@H](CCCCNC(=O)[C@H](CC(C)C)NC(=O)C2OC2C(=O)O)NC(=O)CN2CCN(CC(=O)[O-])CCN(CC(=O)[O-])CCN(CC(=O)[O-])CC2)cc1C(C)C.[177Lu+3] (mixture of isomers) | – | – | mouse, HT-29 xenograft | 168 h post injection, biodistribution | reference: tumour over bone uptake | tumour-to-bone ratio | 5.95
Cc1ncsc1-c1ccc(CNC(=O)[C@@H]2C[C@@H](O)CN2C(=O)[C@@H](NC(=O)COCC(C)(COCCOCCOCCNC(=O)C[C@@H]2N=C(c3ccc(Cl)cc3)c3c(sc(C)c3C)-n3c(C)nnc32)COCCOCCOCCNC(=O)C[C@@H]2N=C(c3ccc(Cl)cc3)c3c(sc(C)c3C)-n3c(C)nnc32)C(C)(C)C)cc1 | – | – | male C57BL/6 mice, plasma | intravenous, 5 mg/kg, 2 h, sample diluted 20-fold | – | plasma concentration | 2320 ng/mL
CC(C)=CCOCCCCCN1C[C@H](O)[C@@H](O)[C@H](O)[C@@H]1CO | Ugcg | enzyme activity, inhibitor, fluorescence | – | – | – | IC50 | 1900 nM
C#Cc1c(F)ccc2cc(O)cc(-c3ncc4c(N5CC6CCC(C5)N6C(=O)OC(C)OC(=O)CC[C@@H](C)[C@H]5CC[C@H]6[C@@H]7CC[C@@H]8C[C@H](O)CC[C@]8(C)[C@H]7C[C@H](O)[C@]56C)nc(OC[C@@]56CCCN5C[C@H](F)C6)nc4c3F)c12 (some centres unmarked) | – | item: prodrug | mouse whole blood | 1 µM | – | t1/2 | 1.78 min
COC(=O)[C@@]1(C(C)C)C=C(C(=O)Nc2cccc(C(=O)Nc3ccc(Nc4nccc(-c5cccnc5)n4)c(C)c3)c2)C(=O)CC1 | – | – | rat, plasma | 1 µM, 5 min | – | compound remaining | 97.6% and 101%
C=C(NC(=O)c1csc(-c2nc3c(cc2O)-c2nc(cs2)C(=O)NC(C(C)O)C(=O)NC(=C(C)OC)c2nc(cs2)C(=O)NC2c4nc(cs4)C(=O)NC(COC(=O)c4c5c6c(cccc6n4O)COC(=O)C(OC4CC(C)(O)C(N(C)C)C(C)O4)C2OC5)c2nc-3cs2)n1)C(N)=O (centres unmarked) | – | – | cynomolgus monkey, female, plasma | intravenous infusion, 3 mg/kg multiple doses, day 7 | – | Cmax | 25900 ng/mL
O=C(CN1CN(c2cccc(F)c2)C2(CCN(C(=O)c3cnc4[nH]ncc4c3)CC2)C1=O)NCC(F)(F)F | – | – | mouse liver microsomes | – | – | CLint | 110 µL/min/mg protein
O=C(Nc1ccc([C@H]2[C@@H](F)[C@@H](F)C[C@@H](F)[C@H]2F)cc1)C1CC1 | – | hepatocyte stability | cryopreserved mouse hepatocytes | 1 µM | – | hepatic clearance | 75 mL/min/kg
Cc1nn(-c2nc3c(F)cc(F)cc3s2)c(O)c1C(c1ccc(C(F)(F)F)cc1)c1c(C)nn(-c2nc3c(F)cc(F)cc3s2)c1O | – | – | ICR mouse, plasma | intravenous, 5 mg/kg | – | Tlast | 24 h
O=C(NCc1cccc(Cl)c1)c1ccc([C@H]2[C@@H](F)[C@@H](F)C[C@@H](F)[C@H]2F)cc1 | – | hepatocyte stability | cryopreserved mouse hepatocytes | 1 µM | – | hepatic clearance | 75 mL/min/kg
COc1cccc(OC)c1-c1cc(C(=O)NC2(C(=O)O)C3CC4CC(C3)CC2C4)nn1-c1ccc(C(=O)N(C)CCCN(C)C(=O)[C@H](CCCCNC(=O)[C@H](CC(C)C)NC(=O)C2OC2C(=O)O)NC(=O)CN2CCN(CC(=O)[O-])CCN(CC(=O)[O-])CCN(CC(=O)[O-])CC2)cc1C(C)C.[177Lu+3] (mixture of isomers) | – | – | mouse, HT-29 xenograft | 72 h post injection, biodistribution | reference: tumour over bone uptake | tumour-to-bone ratio | 14.2
F[C@@H]1[C@H](c2ccc(-c3cnc(N4CCOCC4)nc3)cc2)[C@H](F)[C@H](F)C[C@@H]1F | – | liver microsome stability | mouse liver microsomes | 1 µM | – | hepatic clearance | 49 mL/min/kg
CCN(CC)c1ccc2c(c1)O[B-]1(c3ccccc3C#N)OC(=O)C(c3ccccc3)=N[N+]1=C2CC(C)C (centres unmarked) | – | – | toluene | – | – | fluorescence emission maximum | 518 nm
O=C(c1ccc([C@H]2[C@@H](F)[C@@H](F)C[C@@H](F)[C@H]2F)cc1)N1CCC(F)CC1 | – | hepatocyte stability | cryopreserved human hepatocytes | 1 µM | – | hepatic clearance | 6.2 mL/min/kg
O=C(Nc1cnccc1-c1ccc([18F])cc1)c1ccnc(NC(=O)C2CC2)c1 | – | ex vivo gamma counting | GSK-3β transgenic mice, late-stage, skin | intravenous, 1.26 MBq/animal, 120 min, mean, no P-gp inhibitor | – | SUV | 0.13
CC(C)CC(=O)Nc1ccc(C2CCCCC2)cc1 | – | liver microsome stability | cynomolgus liver microsomes | 1 µM | – | hepatic clearance | 39 mL/min/kg
C[C@]12COc3ccc(Oc4ccccc4)cc3[C@H]1CCN2 | – | lipid PAMPA | PBS | 10 µM, 16 h, pH 7.4, 25 °C | – | permeability (Pe) | 3.16 ×10⁻⁶ cm/s

Repeated from above:
SMILES | tested on | assay | system | conditions | how to read | quantity | value
F[C@@H]1[C@H](c2ccc(-c3cnc(N4CCOCC4)nc3)cc2)[C@H](F)[C@H](F)C[C@@H]1F | – | liver microsome stability | mouse liver microsomes | 1 µM | – | hepatic clearance | 49 mL/min/kg
